Results from different studies.
Protocols differ between the studies behind these lines. Numbers after ± are the reported error.
Target: Mu-type opioid receptor (OPRM1, Homo sapiens, UniProt P35372)

Protein sequences, listed by entry. Tags and fused reporters are not part of them.
UniProt P35372, whole entry: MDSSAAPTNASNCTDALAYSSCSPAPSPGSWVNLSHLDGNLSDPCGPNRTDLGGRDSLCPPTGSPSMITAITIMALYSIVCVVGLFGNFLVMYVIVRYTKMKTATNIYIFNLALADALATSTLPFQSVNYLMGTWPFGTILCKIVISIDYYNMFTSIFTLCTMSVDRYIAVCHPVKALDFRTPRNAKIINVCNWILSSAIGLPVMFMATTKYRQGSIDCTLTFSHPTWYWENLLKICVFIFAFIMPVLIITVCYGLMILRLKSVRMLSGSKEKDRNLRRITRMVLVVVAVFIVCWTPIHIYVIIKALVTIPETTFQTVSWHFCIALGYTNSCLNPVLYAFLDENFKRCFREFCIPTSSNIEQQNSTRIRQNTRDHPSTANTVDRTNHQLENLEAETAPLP

N=C(N)NCCC[C@H](N)C(=O)NCC1(Nc2ccccc2)CCN(Cc2ccccc2)CC1
Ki (binding; HEK293 membranes; with: [3H]DAMGO): > 5000 nM

C=C[C@H]1[C@H]2CCC[C@]1(c1cccc(O)c1)CCN2CCc1ccc([N+](=O)[O-])cc1
IC50 (forskolin-induced cAMP, antagonist; with: fentanyl at EC90): 9.93 ± 3 nM

COc1cc2c(NC3CCN(C(C)C)CC3)nc(N3CCC(F)(F)CC3)nc2cc1OCCCN1CCCC1
Ki (binding, radioligand binding): > 10000 nM

CCC1C(=O)N(C2CCN(C/C=C/c3ccccc3)CC2)c2ccccc21 (centres unmarked)
EC50 (agonist; cell membranes): 2110 ± 135 nM

C=C[C@@H]1[C@H]2CCC[C@]1(c1cccc(O)c1)CCN2C
IC50 (forskolin-induced cAMP, antagonist; with: fentanyl at EC90): > 10000 nM

C=CCN1C[C@H]2CC[C@@H](C1)N2c1cccc(O)c1
IC50 (cAMP, antagonist; human receptor, with: fentanyl EC90): > 10000 nM

C=Cc1cc(O)c([C@@H]2C=C(C)CC[C@H]2C(=C)C)c(O)c1
IC50 (cAMP level, antagonist; HEK293 expressing human µ-opioid receptor; with: fentanyl 500 pM (EC95)): 190 nM

Oc1cccc(N2[C@@H]3CC[C@H]2CN(CC2CC2)C3)c1
IC50 (cAMP, antagonist; human receptor, with: fentanyl EC90): > 10000 nM

CCC1C(=O)N(C2CCN(C3CCCc4ccccc43)CC2)c2ccccc21 (centres unmarked)
EC50 (agonist; cell membranes): 28.7 ± 5.5 nM

CCCCCc1cc(O)c([C@@H]2C[C@@H](CO)CC[C@H]2C(C)C)c(O)c1
IC50 (cAMP level, antagonist; HEK293 expressing human µ-opioid receptor; with: fentanyl 500 pM (EC95)): 137 nM

N=C(N)NCCNC(=O)C1(Nc2ccccc2)CCN(Cc2ccccc2)CC1
Ki (binding; HEK293 membranes; with: [3H]DAMGO): > 5000 nM

Oc1cccc(N2C[C@H]3CC[C@@H](C2)N3CCCc2ccccc2)c1
IC50 (cAMP, antagonist; human receptor, with: fentanyl EC90): > 10000 nM

C=C[C@H]1[C@H]2CCC[C@]1(c1cccc(O)c1)CCN2CCc1ccc(O)cc1
IC50 (forskolin-induced cAMP, antagonist; with: fentanyl at EC90): 273 ± 123 nM

CCC1C(=O)N(C2CCN(C3CCc4ccccc4C3)CC2)c2ccccc21 (centres unmarked)
Ki (radioligand displacement; with: [3H]DAMGO): 10.2 ± 1.76 nM

C=C(I)[C@@H]1CC[C@@]2(C)C[C@@H]1c1c(O)cc(CCCCC)cc1O2
IC50 (cAMP level, antagonist; HEK293 expressing human µ-opioid receptor; with: fentanyl 500 pM (EC95)): 556 nM

O=C1Cc2ccccc2N1C1CCN([C@@H]2CC[C@@H]3CCCc4cccc2c43)CC1
EC50 (agonist; cell membranes): 745 ± 257 nM

C=C(C)[C@@H]1CCC(C)=C[C@H]1c1c(O)cc(CCC)cc1O
IC50 (cAMP level, antagonist; HEK293 expressing human µ-opioid receptor; with: fentanyl 500 pM (EC95)): 556 nM

CCC1C(=O)N(C2CCN([C@H]3CC[C@@H]4CCCc5cccc3c54)CC2)c2ccccc21 (relative stereo)
Ki (radioligand displacement; with: [3H]DAMGO): 8.19 ± 0.16 nM

Oc1cccc(N2[C@@H]3CC[C@H]2CN(CCCc2ccccc2)C3)c1
IC50 (cAMP, antagonist; human receptor, with: fentanyl EC90): > 10000 nM

CCC1C(=O)N(C2CCN(C(C)CC(c3ccccc3)c3ccccc3)CC2)c2ccccc21 (centres unmarked)
Ki (radioligand displacement; with: [3H]DAMGO): 100 ± 4.17 nM

C=C(C)[C@H]1CC[C@]2(C)C[C@H]1c1c(O)cc(CCCCC)cc1O2
IC50 (cAMP level, antagonist; HEK293 expressing human µ-opioid receptor; with: fentanyl 500 pM (EC95)): 349 nM

COc1cc(NC2(CNC(=O)CNC(=N)N)CCN(Cc3ccccc3)CC2)cc(OC)c1
Ki (binding; HEK293 membranes; with: [3H]DAMGO): > 5000 nM

CCC1C(=O)N(C2CCN(CCCCc3ccc(-c4ccccc4)cc3)CC2)c2ccccc21 (centres unmarked)
Ki (radioligand displacement; with: [3H]DAMGO): 168 ± 33 nM

Repeated from above:
N=C(N)NCCNC(=O)C1(Nc2ccccc2)CCN(Cc2ccccc2)CC1
Ki (binding; HEK293 membranes; with: [3H]DAMGO): > 5000 nM

Oc1cccc(N2[C@@H]3CC[C@H]2CN(CCCc2ccccc2)C3)c1
IC50 (cAMP, antagonist; human receptor, with: fentanyl EC90): > 10000 nM
